Measured values from different studies.
Each line is one published result; not all experiments were run side by side. ± gives the spread as reported. Bridges are numbered along the chain shown (N, C = ends). Where no end group is shown, it is not given here. No end group written: not given here. [ ]: non-standard residue; d: D form. The star is where a group is joined. *: point of attachment.
IKBKG 2-419 C11A/C76A/C95A/C131A/C167A: IKBKG 2-419 C11A/C76A/C95A/C131A/C167A (Homo sapiens, UniProt Q9Y6K9)
T1: NR1I2/RXRA (Homo sapiens); chain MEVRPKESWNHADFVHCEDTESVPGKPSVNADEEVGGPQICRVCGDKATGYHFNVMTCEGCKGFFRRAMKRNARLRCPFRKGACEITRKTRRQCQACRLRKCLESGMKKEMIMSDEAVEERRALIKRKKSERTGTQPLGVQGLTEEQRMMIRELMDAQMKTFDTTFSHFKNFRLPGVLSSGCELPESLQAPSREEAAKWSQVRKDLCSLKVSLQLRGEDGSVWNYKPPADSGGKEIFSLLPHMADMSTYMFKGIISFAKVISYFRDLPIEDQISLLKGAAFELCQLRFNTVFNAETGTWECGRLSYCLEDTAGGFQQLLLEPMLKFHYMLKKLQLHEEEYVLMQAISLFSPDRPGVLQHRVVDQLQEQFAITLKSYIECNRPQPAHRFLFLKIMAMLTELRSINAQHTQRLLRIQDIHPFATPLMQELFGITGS; chain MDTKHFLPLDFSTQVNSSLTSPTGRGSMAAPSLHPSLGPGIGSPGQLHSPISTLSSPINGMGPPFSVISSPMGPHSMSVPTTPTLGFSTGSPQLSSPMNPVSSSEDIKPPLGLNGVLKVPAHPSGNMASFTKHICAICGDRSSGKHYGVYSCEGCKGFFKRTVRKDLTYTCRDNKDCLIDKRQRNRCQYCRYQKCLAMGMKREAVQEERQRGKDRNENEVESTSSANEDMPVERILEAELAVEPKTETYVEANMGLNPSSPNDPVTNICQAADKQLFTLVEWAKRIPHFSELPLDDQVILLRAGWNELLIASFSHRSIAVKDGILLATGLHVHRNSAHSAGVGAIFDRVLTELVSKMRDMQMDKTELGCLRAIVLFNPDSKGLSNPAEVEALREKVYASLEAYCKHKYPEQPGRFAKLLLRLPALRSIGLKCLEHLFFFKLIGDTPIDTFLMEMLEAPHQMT
B1: FLRT3 LRR domain 29-357 (Homo sapiens, UniProt Q9NZU0); sequence looked up; chain KSCPSVCRCDAGFIYCNDRFLTSIPTGIPEDATTLYLQNNQINNAGIPSDLKNLLKVERIYLYHNSLDEFPTNLPKYVKELHLQENNIRTITYDSLSKIPYLEELHLDDNSVSAVSIEEGAFRDSNYLRLLFLSRNHLSTIPWGLPRTIEELRLDDNRISTISSPSLQGLTSLKRLVLDGNLLNNHGLGDKVFFNLVNLTELSLVRNSLTAAPVNLPGTNLRKLYLQDNHINRVPPNAFSYLRQLYRLDMSNNNLSNLPQGIFDDLDNITQLILRNNPWYCGCKMKWVRDWLQSLPVKVNVRGLMCQAPEKVRGMAIKDLNAELFDCKD
B2: UGT1A9 (Homo sapiens, UniProt O60656); chain GKLLVVPMDGSHWFTMRSVVEKLILRGHEVVVVMPEVSWQLGRSLNCTVKTYSTSYTLEDLDREFKAFAHAQWKAQVRSIYSLLMGSYNDIFDLFFSNCRSLFKDKKLVEYLKESSFDAVFLDPFDNCGLIVAKYFSLPSVVFARGILCHYLEEGAQCPAPLSYVPRILLGFSDAMTFKERVRNHIMHLEEHLLCHRFFKNALEIASEILQTPVTEYDLYSHTSIWLLRTDFVLDYPKPVMPNMIFIGGINCHQGKPLPMEFEAYINASGEHGIVVFSLGSMVSEIPEKKAMAIADALGKIPQTVLWRYTGTRPSNLANNTILVKWLPQNDLLGHPMTRAFITHAGSHGVYESICNGVPMVMMPLFGDQMDNAKRMETKGAGVTLNVLEMTSEDLENALKAVINDKSYKENIMRLSSLHKDRPVEPLDLAVFWVEFVMRHKGAPHLRPAAHDLTWYQYHSLDVIGFLLAVVLTVAFITFKCCAYGYRKCLGKKGRVKKAHKSKTH
B3: Adgrl3 199-495 D332A (Mus musculus, UniProt Q80TS3); sequence looked up; chain KVFLCPGLLKGVYQSEHLFESDHQSGAWCKDPLQASDKIYYMPWTPYRTDTLTEYSSKDDFIAGRPTTTYKLPHRVDGTGFVVYDGALFFNKERTRNIVKFDLRTRIKSGEAIIANANYHDTSPYRWGGKSDIALAVDENGLWVIYATEQNNGKIVISQLNPYTLRIEGTWDTAYDKRSASNAFMICGILYVVKSVYEDDDNEATGNKIDYIYNTDQSKDSLVDVPFPNSYQYIAAVDYNPRDNLLYVWNNYHVVKYSLDFGPLDSRSGPVHHGQVSYISPPIHLDSELERPPVRGI
B4: PPP1CB (Homo sapiens, UniProt P62140); sequence looked up; chain MADGELNVDSLITRLLEVRGCRPGKIVQMTEAEVRGLCIKSREIFLSQPILLELEAPLKICGDIHGQYTDLLRLFEYGGFPPEANYLFLGDYVDRGKQSLETICLLLAYKIKYPENFFLLRGNHECASINRIYGFYDECKRRFNIKLWKTFTDCFNCLPIAAIVDEKIFCCHGGLSPDLQSMEQIRRIMRPTDVPDTGLLCDLLWSDPDKDVQGWGENDRGVSFTFGADVVSKFLNRHDLDLICRAHQVVEDGYEFFAKRQLVTLFSAPNYCGEFDNAGGMMSVDETLMCSFQILKPSEKKAKYQYGGLNSGRPVTPPRTANPPKKR
B5: Scn2a 989-1133 (UniProt P04775); CK2-phosphorylated; sequence looked up; chain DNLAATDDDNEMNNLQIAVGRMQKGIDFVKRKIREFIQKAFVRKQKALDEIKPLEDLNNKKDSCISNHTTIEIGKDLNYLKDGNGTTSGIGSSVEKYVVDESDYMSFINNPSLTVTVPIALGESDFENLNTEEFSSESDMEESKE
B6: RSPO2 22-144 (Homo sapiens, UniProt Q6UXX9); two AlexaFluor488 labels; sequence looked up; chain QGNRWRRSKRASYVSNPICKGCLSCSKDNGCSRCQQKLFFFLRREGMRQYGECLHSCPSGYYGHRAPDMNRCARCRIENCDSCFSKDFCTKCKVGFYLHRGRCFDECPDGFAPLEETMECVEG

| Molecule | target or system | test | test system | conditions | scale | endpoint | value |
| --- | --- | --- | --- | --- | --- | --- | --- |
| UUUCAGCUCCGGUCACGCUC (ssRNA) | SRSF2 full length assumed (Homo sapiens, UniProt Q01130) | NanoBRET competition | HEK293 | apparent, permeabilized cells, not purified |  | Ki | 322 nM |
| cholecystokinin octapeptide | PKCθ rat | kinase activity |  | 10 nM, immunoprecipitated enzyme, added: histone H1 substrate | reference: untreated | remaining activity | 142 ± 4% |
| Insulin human |  |  | rat, substantia nigra/VTA | intranasal, 20 µg per nostril, 120 min |  | brain concentration | 40.4 ± 12.2 pg/mg tissue |
| CPSSSREKC (disulfide 1-9 (inferred)) (disulfide) | CuFi-1 | flow cytometry | nanoparticles after CF sputum permeation | 2 h, 37 °C | reference: 1 kDa mPEG-coated nanoparticles | cell uptake | 2.2 fold |
| Biotin-GIINTLQKYYCRVRGGRCAVLSCLPKEEQIGKCSTRGRKCCRRKK (DEFB103A (Homo sapiens, UniProt P81534); ends and bridges not checked; Biotin = O=C1N[C@H]2[C@H](CS[C@H]2CCCCC(=O)*)N1; sequence looked up) | MRGPRX3 (Homo sapiens, UniProt Q96LB0) | PE-anti-biotin intensity, flow cytometry | peptide, MRGPRX3-FLAG cells |  |  | Kd | 11100 nM |
| KGNMMSNFFGKAAMNK (POLD3 residues 231-246 (Homo sapiens); N-terminal cysteine) | REV1 1158-1251 (Homo sapiens, UniProt Q9UBZ9) | SPR | peptide | pH 7.4, 25 °C, NaCl 150 mM, equilibrium analysis |  | Kd | 2300 ± 600 nM |
| B1 (FLRT3 LRR domain 29-357) | ADGRL3 20-1447 Y249A/D251A/T252A/R308A (Homo sapiens, UniProt Q9HAR2) | flow cytometry | HEK293 | 100 nM, tetramerised, avidity, in cells |  | Kd | > 10000 nM |
| B2 (UGT1A9) | CCCCOC(=O)c1ccc(O)cc1 | steady-state kinetics |  | pH 7.4, 37 °C |  | Vmax/Km | 32 µL/min/mg |
| {FITC}-SARWRFPARPGTTGGGGGGGRRGLGGAPRQRVPALLLPPGY (KMT2A 4-43 C-A; N-terminal FITC; FITC = O=C1OC2(c3ccc(O)cc3Oc3cc(O)ccc32)c2ccc(NC(=S)*)cc21) | MEN1 (Homo sapiens, UniProt O00255-1) | fluorescence polarisation | peptide |  |  | Kd | 0.76 nM |
| GAATGAACTTGCTGACCCTCT (dsDNA) | T1, NR1I2/RXRA (Homo sapiens) | fluorescence anisotropy competition | double-stranded DNA, one strand shown | added: DR3 FAM |  | Ki | 95.6 ± 5.1 nM |
| KYLPYWPVLSSL (KYL peptide 12-mer) | EPHA4 29-209 (Homo sapiens, UniProt P54764) | ITC | peptide |  |  | Kd | 1300 nM |
| ARTKQTARKSTG (Histone H3.1 2-13 (Homo sapiens, UniProt P68431); sequence looked up) | CHD3 454-508 (Homo sapiens, UniProt Q12873) | fluorescence titration | peptide | pH 7.5, 25 °C, NaCl 150 mM, apparent |  | Kd | 33000 nM |
| B3 (Adgrl3 199-495 D332A) | FLRT3 LRR domain 29-386, N-linked glycosylation (Mus musculus, UniProt Q8BGT1) | ITC |  | pH 7.0, 25 °C, NaCl 150 mM |  | Kd | 170 nM |
| PAKKSEELVAEAHNLSTLLENAIQDAVREQDQSFTALDWSWLQTE (IKBKB 701-745 C716S/T726A (Homo sapiens, UniProt O14920); sequence looked up) | IKBKG 2-419 C11A/C76A/C95A/C131A/C167A | competition with labelled peptide, fluorescence polarisation |  | pH 7.4 |  | Kd | 6.9 nM |
| B4 (PPP1CB) | SHOC2 (Homo sapiens, UniProt Q9UQ13) | BLI |  | pH 7.5, 30 °C |  | Kd | 41800 nM |
| F9 activated FIXa (UniProt P00740) | rFVIIIFc Fc fusion (Homo sapiens) | FXa generation rate | phospholipid vesicles | added: thrombin-activated rFVIIIFc |  | Kd | 5.5 nM |
| V[dI]IA (D-Ile2) | PC-12 | protection from Aβ1–42 toxicity, MTT |  | concentration not given, 6 h, Aβ to peptide ratio 1:5, added: Aβ1–42 2 µM | reference: untreated cells | cell viability | 76% |
| GAATGAACTTGCTGACCCTCTGCTTTC (dsDNA) | T1, NR1I2/RXRA (Homo sapiens) | fluorescence anisotropy competition | double-stranded DNA, one strand shown | added: DR3 FAM |  | Ki | 87.2 ± 4.5 nM |
| LRPAP1 fragment (Homo sapiens) | LDLR LA5 module (Homo sapiens) | NMR titration |  | pH 7.45, 33 °C, NaCl 150 mM, added: CaCl2 10 mM |  | Kd | 670000 ± 26000 nM |
| PAKKSEELAAEAHNLSTLLENAIQDTVREQDQSFTALDWSWLQTE (IKBKB 701-745 C716S/V709A (Homo sapiens, UniProt O14920); sequence looked up) | IKBKG 2-419 C11A/C76A/C95A/C131A/C167A | competition with labelled peptide, fluorescence polarisation |  | pH 7.4 |  | Kd | 280 nM |
| secA (Escherichia coli, UniProt P10408) | phoA signal peptide residues 1-40 C insertion at 2, C-terminal amide, IANBD on Cys2 (Escherichia coli) | fluorescence polarisation |  |  |  | Kd | 6200 ± 800 nM |
| B5 (Scn2a 989-1133) | ANK2 1-957 (Homo sapiens, UniProt Q01484-2) | SPR |  | pH 7.4, 25 °C, NaCl 150 mM |  | Kd | 0.5 nM |
| MGDSILSQAEIDALLN (fliM residues 1-16 (Escherichia coli)) | cheY 2-129 E89Y (Escherichia coli, UniProt P0AE67) | fluorescence titration | peptide | pH 7.0, one-site model |  | Kd | 160000 nM |
| MEDDAPMNLCNEQFEEIEDSPIDDNDNESFYNADGDVELEEEEVHE (spd-2 1-46 (Caenorhabditis elegans, UniProt P91870); sequence looked up) | zyg-1 cryptic polo box 338-564 (Caenorhabditis elegans, UniProt Q9GT24) | MST |  |  |  | Kd | 420 nM |
| B6 (RSPO2 22-144) | LGR4 fragment, terbium chelate label (Homo sapiens) | TR-FRET |  | saturation binding, one-site fit, added: labeled B 10 nM |  | Kd | 120 nM |
